Assay results gathered from unrelated publications.
Lines come from different studies, so protocols differ. “And” joins repeats or separate records; there may be more than shown. ± gives the spread as reported.

Compound	organism	test	system	setting	endpoint	result
O=C(Nc1cc(F)c(F)c(F)c1)c1ccc(F)c(S(=O)(=O)NCc2cccc(B(O)O)c2)c1	hepatitis B virus	viral replication, qPCR, refers to: positive-strand HBV DNA	HepDES19, genotype D	3 days	EC50	830 ± 330 nM
Fc1ccc(C(OCCN2CCN(CCCc3ccccc3)CC2)c2ccc(F)cc2)cc1	Toxoplasma gondii	parasite growth	HFF, bradyzoite, glutamine-induced	–	EC50	7840 nM
CNC(=O)c1ccc(C)c(-n2c(C)cc(OCc3ccc(F)cc3F)c(Br)c2=O)c1	human coronavirus OC43	virus-induced cell killing	MRC-5	screen	maximum inhibition	1.89%
O=c1[nH]c(=O)n([C@H]2C[C@H](O)[C@@H](CO)O2)cc1/C=C/Br	human alphaherpesvirus 2	–	HEL, strain G	–	EC50	96000 nM
NOCC(=O)O	human coronavirus OC43	virus-induced cell killing	MRC-5	screen	maximum inhibition	15.6%
COCC(=O)N1CCC[C@H](C(=O)NCc2nc(-c3ccc(C#N)cc3)cs2)C1	Plasmodium falciparum	–	Dd2	with: WLW-vs fixed ratio 0.60:0.40	EC50	7.5 nM and 5 nM
CC1(C)OB(c2cccc(CNS(=O)(=O)c3cc(C(=O)Nc4cc(F)c(F)c(F)c4)ccc3F)c2)OC1(C)C	hepatitis B virus	viral replication, strand-preferential qPCR, refers to: positive-strand HBV DNA	HepDES19 cells, genotype D	3 days	EC50	1600 nM
Nc1ccn(C[C@@H](CO)OCP(=O)(O)O)c(=O)n1	human alphaherpesvirus 2	virus-induced cytopathogenicity	HEL, G	–	EC50	1000 nM
COc1ccc([C@@]23Oc4cc(OC)cc(OC)c4[C@@]24N=C(C)N[C@@]4(O)[C@H](C(=O)N(C)OC)[C@H]3c2ccccc2)cc1	Hepatitis E virus	viral replication	HepG2 HEV-3 replicon, genotype 3	24 h	EC50	1.62 nM
COc1ccc(C(=O)Nc2ccccc2C(=O)N[C@H](C(=O)N[C@H](CO)C(C)C)C(C)C)cc1	human coronavirus OC43	viral replication, plaque reduction	MRC-5	6 days	EC50	> 50000 nM
COc1cc2c3c(c1OC)-c1ccccc1C[C@H]3N(C)CC2	Toxoplasma gondii	parasite growth	HFF, bradyzoite, alkaline-induced	–	EC50	4270 nM
CC1(C)OB(c2ccc(NS(=O)(=O)c3cc(C(=O)Nc4cc(F)c(F)c(F)c4)ccc3F)cc2)OC1(C)C	hepatitis B virus	viral replication, qPCR, refers to: positive-strand HBV DNA	HepDES19, genotype D	3 days	EC50	3470 nM
C[C@@H]1C[C@@H]([C@H](O)CC2CC(=O)NC(=O)C2)C(=O)[C@@H](C)C1	Mus musculus	gene silencing, high-content imaging	LDR reporter GFP cells	confirmation, mean of two runs	EC50	794 nM
CC1(C)OB(c2ccccc2NS(=O)(=O)c2cc(C(=O)Nc3ccc(F)c(F)c3)ccc2F)OC1(C)C	hepatitis B virus	viral replication, qPCR, refers to: positive-strand HBV DNA	HepDES19, genotype D	3 days	EC50	> 5000 nM
COc1ccc(NC(=O)N2CCCCN3[C@H](CN(C)C)[C@H](c4ccc(C#Cc5ccccc5)cc4)[C@@H]3C2)cc1	Toxoplasma gondii	bradyzoite growth	–	pH 8.2, alkaline-induced bradyzoites	EC50	220 nM
COC(=O)N[C@H](C(=O)N1CCC[C@H]1c1ncc(-c2ccc(-c3ccc(-c4cnc([C@@H]5CCCN5C(=O)[C@@H](NC(=O)OC)C(C)C)[nH]4)cc3)cc2)[nH]1)C(C)C	human immunodeficiency virus	viral replication	MT-2	–	EC50	> 20000 nM
c1ccc2c(c1)[I+]c1ccccc1-2	Toxoplasma gondii	–	–	alkaline-induced bradyzoites	EC50	273 nM
O=C(Nc1cc(F)c(F)c(F)c1)c1ccc(F)c(S(=O)(=O)Nc2ccccc2B(O)O)c1	hepatitis B virus	viral replication, qPCR, refers to: positive-strand HBV DNA	HepDES19, genotype D	3 days	EC50	> 5000 nM
CN1CC[C@@]2(C)c3cc(OC(=O)Nc4ccccc4)ccc3N(C)[C@@H]12	Toxoplasma gondii	parasite growth	HFF, bradyzoite, glutamine-induced	–	EC50	2610 nM
COC(=O)[C@@H]1[C@@H](c2ccccc2)[C@]2(c3ccc(OC)cc3)Oc3cc(OC)cc(OC)c3[C@@]23N=C(C)N[C@@]13O	Hepatitis E virus	viral replication	HepG2 HEV-1 replicon, genotype 1	24 h	EC50	1.46 nM
O=C(N1CCC2(CC1)C[C@H](CN1CCCCS1(=O)=O)CCO2)C1(c2ccccc2)CCCC1	echovirus 11	viral replication	–	–	EC50	> 32000 nM
CC1(C)OB(c2ccccc2CNS(=O)(=O)c2cc(C(=O)Nc3cc(F)c(F)c(F)c3)ccc2F)OC1(C)C	hepatitis B virus	viral replication, strand-preferential qPCR, refers to: positive-strand HBV DNA	HepDES19 cells, genotype D	3 days	EC50	> 5000 nM
N#C[C@@]1(n2ccc(N)nc2=O)O[C@H](CO)[C@@H](O)[C@H]1O	human coronavirus OC43	viral replication, cell-based	–	–	EC50	> 15000 nM
CC1(C)OB(c2cccc(NS(=O)(=O)c3cc(C(=O)Nc4cc(F)c(F)c(F)c4)ccc3F)c2)OC1(C)C	hepatitis B virus	viral replication, qPCR, refers to: positive-strand HBV DNA	HepDES19, genotype D	3 days	EC50	> 5000 nM
C[C@H]1CCC/C=C/[C@@H]2C[C@H](O)C[C@H]2[C@H](O)/C=C/C(=O)O1	Toxoplasma gondii	parasite growth, luciferase reporter	HFF host cells, tachyzoites	72 h	EC50	60 nM
CC(C)[C@H](NC(=O)c1ccccc1NC(=O)c1ccccn1)C(=O)N[C@H](CO)C(C)C	human coronavirus OC43	viral replication, plaque reduction	MRC-5	6 days	EC50	> 50000 nM

A few entries again:
Compound	organism	test	system	setting	endpoint	result
CC1(C)OB(c2cccc(NS(=O)(=O)c3cc(C(=O)Nc4cc(F)c(F)c(F)c4)ccc3F)c2)OC1(C)C	hepatitis B virus	viral replication, qPCR, refers to: positive-strand HBV DNA	HepDES19, genotype D	3 days	EC50	> 5000 nM
CC1(C)OB(c2ccccc2NS(=O)(=O)c2cc(C(=O)Nc3ccc(F)c(F)c3)ccc2F)OC1(C)C	hepatitis B virus	viral replication, qPCR, refers to: positive-strand HBV DNA	HepDES19, genotype D	3 days	EC50	> 5000 nM
